Assay results gathered from unrelated publications.
± gives the spread as reported.
ache: Acetylcholinesterase (ache, Electrophorus electricus, UniProt O42275)
Chain of UniProt O42275 (whole entry, looked up): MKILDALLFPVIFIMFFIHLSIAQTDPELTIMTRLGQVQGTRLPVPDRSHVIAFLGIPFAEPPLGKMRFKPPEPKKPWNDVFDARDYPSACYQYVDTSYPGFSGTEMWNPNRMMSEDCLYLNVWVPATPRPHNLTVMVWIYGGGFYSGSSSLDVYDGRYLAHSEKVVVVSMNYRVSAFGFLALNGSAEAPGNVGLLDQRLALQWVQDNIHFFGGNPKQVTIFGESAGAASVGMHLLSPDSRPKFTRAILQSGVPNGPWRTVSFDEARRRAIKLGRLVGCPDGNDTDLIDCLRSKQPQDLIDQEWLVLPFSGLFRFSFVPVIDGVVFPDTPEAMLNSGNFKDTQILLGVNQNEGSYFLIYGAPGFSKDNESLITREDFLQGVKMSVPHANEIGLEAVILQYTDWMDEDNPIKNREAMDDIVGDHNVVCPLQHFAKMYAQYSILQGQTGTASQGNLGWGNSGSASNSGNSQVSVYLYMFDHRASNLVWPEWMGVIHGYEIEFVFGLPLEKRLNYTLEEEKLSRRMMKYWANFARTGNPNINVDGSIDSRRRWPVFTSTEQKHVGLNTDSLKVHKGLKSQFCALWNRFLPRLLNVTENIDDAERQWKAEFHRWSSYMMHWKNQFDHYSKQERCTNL
Chain of UniProt P23458 (whole entry, looked up): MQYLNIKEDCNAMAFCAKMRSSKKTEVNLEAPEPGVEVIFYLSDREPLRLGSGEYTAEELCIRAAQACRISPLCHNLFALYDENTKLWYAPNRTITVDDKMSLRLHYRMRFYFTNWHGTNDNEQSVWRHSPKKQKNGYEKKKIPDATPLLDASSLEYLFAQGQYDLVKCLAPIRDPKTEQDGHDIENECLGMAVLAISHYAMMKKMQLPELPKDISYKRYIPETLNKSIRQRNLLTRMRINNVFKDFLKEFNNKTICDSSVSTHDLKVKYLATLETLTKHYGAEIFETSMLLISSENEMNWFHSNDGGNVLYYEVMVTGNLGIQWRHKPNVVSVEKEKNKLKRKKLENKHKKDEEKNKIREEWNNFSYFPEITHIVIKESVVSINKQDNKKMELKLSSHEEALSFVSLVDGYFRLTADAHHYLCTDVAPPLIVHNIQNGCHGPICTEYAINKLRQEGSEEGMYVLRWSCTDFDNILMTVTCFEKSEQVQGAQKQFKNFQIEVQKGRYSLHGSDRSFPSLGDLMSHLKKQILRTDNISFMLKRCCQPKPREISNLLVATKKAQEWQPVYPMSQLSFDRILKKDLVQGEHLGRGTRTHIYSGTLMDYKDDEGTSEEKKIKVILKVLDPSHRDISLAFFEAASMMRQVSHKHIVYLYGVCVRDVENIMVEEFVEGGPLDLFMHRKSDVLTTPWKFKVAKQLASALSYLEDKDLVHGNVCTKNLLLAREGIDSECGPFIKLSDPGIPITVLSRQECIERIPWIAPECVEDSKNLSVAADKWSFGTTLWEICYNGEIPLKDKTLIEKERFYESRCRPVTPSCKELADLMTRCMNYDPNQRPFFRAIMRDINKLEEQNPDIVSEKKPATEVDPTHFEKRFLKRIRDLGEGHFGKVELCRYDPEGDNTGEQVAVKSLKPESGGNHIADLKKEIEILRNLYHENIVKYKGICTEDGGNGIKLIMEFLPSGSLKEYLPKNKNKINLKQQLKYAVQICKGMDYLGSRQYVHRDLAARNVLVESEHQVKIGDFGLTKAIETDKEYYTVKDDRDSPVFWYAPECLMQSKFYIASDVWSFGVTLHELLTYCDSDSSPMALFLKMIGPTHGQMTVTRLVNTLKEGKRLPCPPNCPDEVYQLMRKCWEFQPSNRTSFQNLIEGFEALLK
Chain of UniProt P00811 (whole entry, looked up): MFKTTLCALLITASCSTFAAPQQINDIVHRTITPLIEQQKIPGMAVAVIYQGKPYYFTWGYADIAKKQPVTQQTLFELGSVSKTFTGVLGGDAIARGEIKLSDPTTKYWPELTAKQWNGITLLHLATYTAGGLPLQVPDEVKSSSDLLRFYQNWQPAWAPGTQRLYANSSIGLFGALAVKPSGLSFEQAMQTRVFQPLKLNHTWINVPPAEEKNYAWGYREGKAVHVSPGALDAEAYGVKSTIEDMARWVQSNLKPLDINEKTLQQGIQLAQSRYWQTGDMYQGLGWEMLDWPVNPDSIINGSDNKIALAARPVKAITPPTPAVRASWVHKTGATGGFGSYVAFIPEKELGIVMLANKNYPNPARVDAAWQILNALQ
Chain of UniProt O13828 (whole entry, looked up): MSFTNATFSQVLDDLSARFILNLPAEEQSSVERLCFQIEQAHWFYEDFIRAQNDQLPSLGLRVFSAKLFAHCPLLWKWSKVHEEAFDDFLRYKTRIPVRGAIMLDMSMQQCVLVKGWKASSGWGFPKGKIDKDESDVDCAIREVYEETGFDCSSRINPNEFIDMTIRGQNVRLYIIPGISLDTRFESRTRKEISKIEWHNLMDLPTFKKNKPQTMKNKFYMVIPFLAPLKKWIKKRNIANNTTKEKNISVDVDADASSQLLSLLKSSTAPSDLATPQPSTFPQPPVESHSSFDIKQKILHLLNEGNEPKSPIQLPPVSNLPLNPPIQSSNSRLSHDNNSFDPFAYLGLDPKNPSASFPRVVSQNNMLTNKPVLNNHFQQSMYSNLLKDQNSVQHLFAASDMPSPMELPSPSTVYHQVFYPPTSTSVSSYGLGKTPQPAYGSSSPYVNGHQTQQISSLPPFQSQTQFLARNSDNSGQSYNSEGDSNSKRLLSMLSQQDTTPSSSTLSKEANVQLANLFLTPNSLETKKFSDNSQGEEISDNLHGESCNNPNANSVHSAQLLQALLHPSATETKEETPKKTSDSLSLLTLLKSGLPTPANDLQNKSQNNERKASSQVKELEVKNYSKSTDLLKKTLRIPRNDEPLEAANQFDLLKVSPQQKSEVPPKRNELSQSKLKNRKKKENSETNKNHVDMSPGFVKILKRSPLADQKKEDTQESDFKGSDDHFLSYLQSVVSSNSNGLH
Chain of UniProt Q9Y570 (whole entry, looked up): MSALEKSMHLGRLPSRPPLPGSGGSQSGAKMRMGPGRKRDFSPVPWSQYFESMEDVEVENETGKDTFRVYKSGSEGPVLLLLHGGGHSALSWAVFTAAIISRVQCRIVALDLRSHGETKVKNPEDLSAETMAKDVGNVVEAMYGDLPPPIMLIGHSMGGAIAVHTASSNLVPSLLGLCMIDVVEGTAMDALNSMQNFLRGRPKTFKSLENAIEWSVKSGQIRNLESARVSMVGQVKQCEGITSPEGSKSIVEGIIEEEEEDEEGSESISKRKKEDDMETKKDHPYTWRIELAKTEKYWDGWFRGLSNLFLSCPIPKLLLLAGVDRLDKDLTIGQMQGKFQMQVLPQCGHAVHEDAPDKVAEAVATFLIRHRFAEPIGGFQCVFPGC
Chain of UniProt O00329 (whole entry, looked up): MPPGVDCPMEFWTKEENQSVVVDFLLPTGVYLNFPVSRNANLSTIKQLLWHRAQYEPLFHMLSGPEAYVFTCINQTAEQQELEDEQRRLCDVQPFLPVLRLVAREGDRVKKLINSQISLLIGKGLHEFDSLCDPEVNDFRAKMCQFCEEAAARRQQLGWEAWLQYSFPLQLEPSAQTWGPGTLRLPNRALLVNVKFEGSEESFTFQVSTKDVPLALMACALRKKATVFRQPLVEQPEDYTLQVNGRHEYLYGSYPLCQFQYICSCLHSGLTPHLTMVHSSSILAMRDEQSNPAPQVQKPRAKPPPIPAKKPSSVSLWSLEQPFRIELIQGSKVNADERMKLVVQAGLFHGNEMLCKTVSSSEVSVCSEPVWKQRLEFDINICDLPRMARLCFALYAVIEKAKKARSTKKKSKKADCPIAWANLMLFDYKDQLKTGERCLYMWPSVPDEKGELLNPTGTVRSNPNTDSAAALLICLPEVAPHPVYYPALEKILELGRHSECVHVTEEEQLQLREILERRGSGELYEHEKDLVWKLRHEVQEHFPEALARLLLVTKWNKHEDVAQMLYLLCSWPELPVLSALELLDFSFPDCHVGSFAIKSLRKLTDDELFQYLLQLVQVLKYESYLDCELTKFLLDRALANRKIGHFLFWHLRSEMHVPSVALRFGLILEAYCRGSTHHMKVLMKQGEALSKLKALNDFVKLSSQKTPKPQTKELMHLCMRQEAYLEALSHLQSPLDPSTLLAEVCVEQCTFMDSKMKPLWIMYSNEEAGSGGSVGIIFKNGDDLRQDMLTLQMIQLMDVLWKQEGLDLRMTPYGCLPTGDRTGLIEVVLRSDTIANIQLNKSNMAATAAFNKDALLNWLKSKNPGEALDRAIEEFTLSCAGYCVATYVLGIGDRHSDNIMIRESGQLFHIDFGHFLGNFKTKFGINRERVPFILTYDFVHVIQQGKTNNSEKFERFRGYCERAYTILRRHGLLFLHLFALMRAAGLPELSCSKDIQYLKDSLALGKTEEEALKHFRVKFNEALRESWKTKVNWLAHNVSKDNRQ
Chain of UniProt O43148 (whole entry, looked up): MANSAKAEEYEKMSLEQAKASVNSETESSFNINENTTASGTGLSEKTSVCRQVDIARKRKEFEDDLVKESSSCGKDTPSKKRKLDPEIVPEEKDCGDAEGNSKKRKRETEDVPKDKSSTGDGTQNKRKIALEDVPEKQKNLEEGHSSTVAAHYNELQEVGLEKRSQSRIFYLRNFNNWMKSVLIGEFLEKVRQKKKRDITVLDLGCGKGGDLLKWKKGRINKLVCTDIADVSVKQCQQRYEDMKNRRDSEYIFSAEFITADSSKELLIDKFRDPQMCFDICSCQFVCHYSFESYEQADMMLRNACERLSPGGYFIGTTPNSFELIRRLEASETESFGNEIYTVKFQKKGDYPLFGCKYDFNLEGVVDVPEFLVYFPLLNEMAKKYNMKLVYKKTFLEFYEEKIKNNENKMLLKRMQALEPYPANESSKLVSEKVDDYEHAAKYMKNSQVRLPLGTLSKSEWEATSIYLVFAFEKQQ

O=C(CN1CN(c2ccccc2)C2(CCN(C(=O)c3cnc4[nH]ncc4c3)CC2)C1=O)NCC(F)(F)F gave an inhibition of under 50% (Tyrosine-protein kinase JAK1, JH2 pseudokinase domain (JAK1, Homo sapiens, UniProt P23458); inhibitor; concentration not given).
With O=C(NC1CCN(c2ncnc3[nH]cnc23)CC1)c1cccc(NS(=O)(=O)c2ccc(C(F)(F)F)cc2)c1 the inhibition was 4.89% (mRNA cap guanine-N(7) methyltransferase (RNMT, Homo sapiens, UniProt O43148); enzyme activity, inhibitor; 0.7812 µM).
The inhibition of BP(=O)(OC[C@H]1O[C@@H](n2c[n+](C)c3c(O)nc(N)nc32)[C@H](O)[C@@H]1O)OP(=O)([O-])OP(=O)([O-])OP(B)(=O)OC[C@H]1O[C@@H](n2c[n+](C)c3c(O)nc(N)nc32)[C@H](O)[C@@H]1O (single isomer, unassigned) is reported as 36.9% (mRNA decapping complex subunit 2, with Dcp1 (dcp2, Schizosaccharomyces pombe, UniProt O13828); 200 µM, 0.25 h).
The inhibition of CC(C)[C@H]1NC(=O)C[C@H]2/C=C/CCSSC[C@@H](NC1=O)C(=O)N[C@H](Cc1cccc3ccccc13)C(=O)NCC(=O)O2 is reported as 2.6% (Tyrosine-protein kinase JAK1 (JAK1, Homo sapiens, UniProt P23458); enzyme activity, inhibitor; 10 µM).
The inhibition of Cc1cc(C)cc(-n2cc(CCS(=O)(=O)F)nn2)c1 is reported as 35.6 ± 2.9% (ache; Ellman; 20 µM).
CN[C@@H]1[C@H](O)[C@H](NC)[C@H]2O[C@]3(O)[C@H](O[C@@H]2[C@H]1O)O[C@H](C)C[C@H]3NC(=O)Cc1ccc(Cl)cn1 has an inhibition of 2% (Adenosine receptor A2a (ADORA2A, Homo sapiens, UniProt P29274); cell-free assay; 10 µM).
With CN(C)[C@H]1C[C@@]23CC[C@@]4(O2)C(=CC[C@]2(C)[C@@H](c5ccc6ccncc6c5)CC[C@H]24)C=C3[C@@H](O)[C@@H]1O the inhibition was -4.7% (NUAK family SNF1-like kinase 1 (NUAK1, Homo sapiens, UniProt O60285); ATP probe labelling, inhibitor, KiNativ profiling; 1 µM).
For O=C(CP(=O)(Oc1ccccc1)Oc1ccccc1)N/N=C\c1ncccc1F, inhibition read “inactive” (Protein phosphatase methylesterase 1 (Homo sapiens, UniProt Q9Y570); enzyme activity, inhibitor, gel-based ABPP; overexpression lysate; concentration not given).
With CS(C)(=O)=Nc1ccc(-c2ccc(-c3nc4cc(O[C@@H]5CO[C@H]6[C@@H]5OC[C@H]6O)[nH]c4cc3F)cc2)cc1 the inhibition was 3% (Phosphatidylinositol 4,5-bisphosphate 3-kinase catalytic subunit delta isoform, with p85 alpha (PIK3CD, Homo sapiens, UniProt O00329); kinase activity; 10 µM).
With O=S(=O)(F)CCc1cn(-c2c(F)cccc2F)nn1 the inhibition was 6.3 ± 2.8% (ache; Ellman; 20 µM).
For CC(=O)NC[C@@H]1[C@@H](O)C[C@H]2[C@H](O)C[C@@H](CO)N12, the inhibition was 18.8% (human placental β-N-acetylglucosaminidase; 0.0107 µM, run 1, with: p-nitrophenyl GlcNAc).
N[C@H](C(=O)N1CCCC1)C1CCN(c2nccc3c(-c4ncc(Cl)cc4Cl)cccc23)CC1 has an inhibition of -13% (muscle nicotinic acetylcholine receptor; binding, radioligand binding; 10 µM).
The inhibition of OB(O)c1cnn(-c2cccc(Cl)c2)c1 is reported as about 80% (Beta-lactamase (ampC, Escherichia coli K-12, UniProt P00811); enzyme activity; 5 x IC50, no preincubation).

Repeated from above:
The inhibition of Cc1cc(C)cc(-n2cc(CCS(=O)(=O)F)nn2)c1 is reported as 35.6 ± 2.9% (ache; Ellman; 20 µM).
